Published values gathered from unrelated publications.
Parts stem from different laboratories: compare values within a part only.

Set 1
Target: Phosphate system positive regulatory protein PHO4, full length, GST-tagged (PHO4, Saccharomyces cerevisiae, UniProt P07270, residues 1-312)
Method: competition protein-binding microarray
Molecule type: double-stranded DNA, one strand shown
Sample: in vitro
Concentration: 2 µM
Notes: whole 60-bp probe, lowest competitor level
Added: Cbf1 competitor, 0.05 µM
Direction: higher = stronger binding
Measurement: fluorescence intensity
Target sequence (chain): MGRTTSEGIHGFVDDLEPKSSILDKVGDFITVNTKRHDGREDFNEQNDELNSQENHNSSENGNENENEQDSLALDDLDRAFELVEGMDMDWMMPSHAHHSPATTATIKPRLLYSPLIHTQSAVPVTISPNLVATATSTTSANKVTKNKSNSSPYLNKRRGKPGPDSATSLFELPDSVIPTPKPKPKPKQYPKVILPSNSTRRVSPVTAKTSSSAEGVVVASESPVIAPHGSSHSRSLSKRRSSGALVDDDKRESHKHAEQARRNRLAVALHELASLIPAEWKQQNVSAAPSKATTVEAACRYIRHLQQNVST
CGGGGTTAAGTTTGACAAGTGGGTGGCTTGCAGCAGGTCTTGATTCGCTTGACGCTGCTG: 4710 a.u.
GGGTACCCAATTCGTCACGTTTCACGAATTCTCGGGGTCTTGATTCGCTTGACGCTGCTG: 11400 a.u.
TTATTCAAATGAAATACAATTCTTTTCAAAGTTTGGGTCTTGATTCGCTTGACGCTGCTG: 2670 a.u.
CATACCCAACCTTTTCACGTGGTTTAAGATATTTGTGTCTTGATTCGCTTGACGCTGCTG: 14900 a.u.

Set 2
Target: Interferon regulatory factor 3, full length, phosphomimetic (IRF3, Homo sapiens, UniProt Q14653, residues 1-427, S386D/S396D/S398D/S402D/T404D/S405D)
Method: protein-binding microarray
Molecule type: double-stranded DNA, one strand shown
Sample: in vitro
Concentration: 2540 nM top
Notes: 60-bp whole probe
Added: salmon DNA 0.4 mg/ml
Reference: random background probes
Direction: higher = stronger binding
Measurement: fitted relative affinity
Constant ends, left off below: GCCTAGCAC … GTCTTGATTCGCTTGACGCTGCTG
Construct (chain): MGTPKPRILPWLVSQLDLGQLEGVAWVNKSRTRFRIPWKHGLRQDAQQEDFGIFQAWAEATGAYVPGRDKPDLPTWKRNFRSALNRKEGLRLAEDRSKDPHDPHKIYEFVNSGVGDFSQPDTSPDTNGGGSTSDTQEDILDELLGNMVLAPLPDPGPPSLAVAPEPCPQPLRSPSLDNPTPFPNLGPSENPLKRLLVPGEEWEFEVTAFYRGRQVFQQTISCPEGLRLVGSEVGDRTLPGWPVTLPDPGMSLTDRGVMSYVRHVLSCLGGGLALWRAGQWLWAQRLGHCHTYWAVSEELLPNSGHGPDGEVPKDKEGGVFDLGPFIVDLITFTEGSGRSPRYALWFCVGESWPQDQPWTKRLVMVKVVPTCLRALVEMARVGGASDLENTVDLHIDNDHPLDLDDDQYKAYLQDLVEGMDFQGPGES
TTAAGTTTCCTTTTCCTTTAGTGCTAG: 13.1 z-score
TGAGGACTGGGGACTGGGTTAGTGCTA: -1.36 z-score
TTAAGTTTCGGGTTTCGGTTAGTGCTA: 6.72 z-score
TTAGGTTTCCTACTCCTTTAGTGCTAG: 6.71 z-score
TCATTTTTCTAGTCCAGACTGTGCTAG: 1.77 z-score
TCAGTTTTTATTTTCTGACTGTGCTAG: 3.52 z-score
TTAGGCTTCGACACTGGGTTAGTGCTA: -0.923 z-score
GACGGTATCGGGTTTGGGGACGTGCTA: 2.28 z-score
CTCCACTTGTGTTTGGGCATGTGCTAG: -0.268 z-score

Set 3
Target: RING finger protein unkempt homolog, zinc fingers 1-6, GST-SBP tag (UNK, Homo sapiens, UniProt Q9C0B0, residues 30-357)
UniProt Q9C0B0, sequence (30-357, looked up): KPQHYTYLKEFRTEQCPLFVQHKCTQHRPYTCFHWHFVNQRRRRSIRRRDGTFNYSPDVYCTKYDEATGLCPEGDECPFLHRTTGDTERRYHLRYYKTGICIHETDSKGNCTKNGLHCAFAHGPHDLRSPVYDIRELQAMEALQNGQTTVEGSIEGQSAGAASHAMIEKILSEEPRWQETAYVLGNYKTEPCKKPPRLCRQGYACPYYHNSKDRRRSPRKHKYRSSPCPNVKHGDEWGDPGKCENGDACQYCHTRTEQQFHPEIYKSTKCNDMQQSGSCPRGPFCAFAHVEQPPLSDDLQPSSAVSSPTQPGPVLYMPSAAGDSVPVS
Method: RNA Bind-n-Seq
Molecule type: RNA
Sample: in vitro
Concentration: not given
Notes: RNA with constant flanks, human and mouse sites, ends assumed
Reference: input RNA pool
Direction: higher = stronger binding
Measurement: bound/input enrichment
GGGAGUUCUACAGUCCGACGAUCUUAUCUUGAAAAAGCAUCACAGAAGUAGAAAAAAAUGUCGAAAGCAUUAUAACUGUAACGUUCUUUGAGUUUGUGAUUGAUCCACAUUUUUCCCCCUGCAUUAUGGAAAAUGUCUCUCAGCAACAGAGGAUUGAGCAUCA: 0.215 ratio
GGGAGUUCUACAGUCCGACGAUCGAAAUAACAAGUCUUGAUACAGAGAAUAUAGAUGAAAUUUUAAACAAUGCUGAUGUUGCUUUAGUAAAUUUUUAUGCUGACUGGUGUCGUUUCAGUCAGAUGUUGCAUCCAAUUUUUGAGCAACAGAGGAUUGAGCAUCA: 20.3 ratio
GGGAGUUCUACAGUCCGACGAUCGAAGACUUCUGCCGAGAAGGUCUAUCUGAUAUCUUACCCAUUCUGCAUGGUUUAUGCCUGUAGUUGAGCCCAUUGUUGUGAAAUCUGUCCUUGUCCAGUACCUAGAUCUGUGGAGGUCAACAACAGAGGAUUGAGCAUCA: 0.208 ratio

Set 4
Target: PABPC1L2, full length, GST fusion (mouse, UniProt A0ABA7IW68)
Method: RNAcompete
Molecule type: RNA
Sample: in vitro
Concentration: 20 nM
Notes: 7-mer, probes averaged, single round
Reference: mean of 7-mers
Direction: higher = stronger binding
Measurement: 7-mer Z-score
Target sequence (chain): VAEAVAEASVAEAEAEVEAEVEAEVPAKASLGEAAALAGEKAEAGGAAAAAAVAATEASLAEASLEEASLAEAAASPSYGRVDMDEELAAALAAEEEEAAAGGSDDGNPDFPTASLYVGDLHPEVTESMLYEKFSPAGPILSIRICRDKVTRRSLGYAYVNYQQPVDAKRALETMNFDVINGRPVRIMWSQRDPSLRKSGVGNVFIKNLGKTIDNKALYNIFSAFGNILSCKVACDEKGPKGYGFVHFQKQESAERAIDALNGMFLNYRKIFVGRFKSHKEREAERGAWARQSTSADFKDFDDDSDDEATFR
UUGUGUG: -0.329
CAUUGUU: -0.427
CUUGGAA: 0.0497
GCCAGGA: 0.017
AACCUCG: -0.15
GAGACUG: -0.0935
CUCCUCA: -0.36
GGAUGUC: -0.0482
ACAUCAC: -0.0899
ACCCCAU: -0.251
GUGCACA: -0.0881
ACAGUUU: -0.251
UCUCAUA: -0.324
AUUCCUG: -0.157
AGUGUUC: -0.36
UGAACCA: -0.0881
GUCCUUC: -0.403

Single results of other studies
EEF1B2 (Homo sapiens, UniProt P24534)  interaction screen (EEF1A1 (Homo sapiens, UniProt P68104); cross-linking MS; hits only): cross-linked

A few entries again (set 2):
TGAGGACTGGGGACTGGGTTAGTGCTA: -1.36 z-score
CTCCACTTGTGTTTGGGCATGTGCTAG: -0.268 z-score
